Assay results collected from several papers.
Each numbered part is a random draw from the data of one study; scales do not carry over between parts. Positions count from the first letter of the parent shown.

Series 1
Target: Sal-like protein 4, full length isoform B (SALL4, Homo sapiens, UniProt Q9UJQ4-2, residues 1-616)
Technique: universal PBM
Form: double-stranded DNA, one strand shown
Matrix: in vitro
Tested at: not given
Setting: 8-mer, flanks averaged, mean of replicates
Direction: higher = stronger binding
Residues (chain): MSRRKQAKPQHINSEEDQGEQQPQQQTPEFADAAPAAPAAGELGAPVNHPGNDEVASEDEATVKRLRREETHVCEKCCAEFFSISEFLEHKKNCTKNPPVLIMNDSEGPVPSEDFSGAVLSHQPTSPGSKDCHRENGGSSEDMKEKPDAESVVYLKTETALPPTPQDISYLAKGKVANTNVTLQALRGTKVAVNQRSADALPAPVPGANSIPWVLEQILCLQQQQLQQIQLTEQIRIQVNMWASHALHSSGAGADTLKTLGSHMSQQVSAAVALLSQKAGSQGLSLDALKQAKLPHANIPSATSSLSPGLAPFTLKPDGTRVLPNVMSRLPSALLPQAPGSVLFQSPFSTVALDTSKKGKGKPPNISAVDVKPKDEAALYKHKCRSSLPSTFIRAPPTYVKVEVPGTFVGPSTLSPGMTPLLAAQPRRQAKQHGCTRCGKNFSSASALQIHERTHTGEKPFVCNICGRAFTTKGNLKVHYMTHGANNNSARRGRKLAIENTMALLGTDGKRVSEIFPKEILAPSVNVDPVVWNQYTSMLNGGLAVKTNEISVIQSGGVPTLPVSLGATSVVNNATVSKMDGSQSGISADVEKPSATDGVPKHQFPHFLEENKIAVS
| Oligonucleotide | E-score |
| --- | --- |
| ATGACATA | 0.3 |
| CGTGGTGA | -0.237 |
| AGGGTTCG | -0.206 |
| GGCGGACA | -0.228 |
| GCCGCAGC | -0.33 |
| CTCGCAAA | -0.0513 |
| CAATGTCC | -0.125 |
| ACTAGGCA | -0.058 |

Series 2
Target: CREBRF, bZIP domain (human)
Technique: DHFR protein complementation
Matrix: yeast
Setting: single substitutions, most at no-binding floor
Baseline: wild-type JUN-FOS pair
Direction: higher = stronger binding
Starting sequence: JUN, bZIP domain (human); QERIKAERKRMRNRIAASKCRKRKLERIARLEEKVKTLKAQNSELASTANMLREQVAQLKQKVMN; partner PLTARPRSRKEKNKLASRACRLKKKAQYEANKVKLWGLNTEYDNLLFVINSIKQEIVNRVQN
| Substitution | binding fitness |
| --- | --- |
| K36C | -1.17 natural log |
| V35G | -1.5 natural log |
| E44A | -1.25 natural log |
| E32V | -1.46 natural log |
| T37P | -1.51 natural log |
| E33C | -1.51 natural log |
| E32A | -1.49 natural log |
| L38F | -1.49 natural log |

Other studies, line by line
P1: viral docking peptide; KKAKRRLFTISDS; partner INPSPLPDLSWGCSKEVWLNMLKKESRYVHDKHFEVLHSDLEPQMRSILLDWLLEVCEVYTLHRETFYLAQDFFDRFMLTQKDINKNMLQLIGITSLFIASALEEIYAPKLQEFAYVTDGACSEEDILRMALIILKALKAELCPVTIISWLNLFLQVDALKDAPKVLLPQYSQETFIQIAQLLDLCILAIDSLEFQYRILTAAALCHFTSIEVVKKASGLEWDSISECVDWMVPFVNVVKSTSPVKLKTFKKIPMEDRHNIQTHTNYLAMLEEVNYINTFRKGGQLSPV
| Molecule | target | assay | system | setting | how to read | quantity | value |
| --- | --- | --- | --- | --- | --- | --- | --- |
| PhoQ, residues 284 288 289 292 302 303 HSYLQF | PhoP, residues 12 14 15 18 19 LHSVW (Escherichia coli, UniProt P23836) | Sort-seq, refers to: YFP reporter | E. coli | PhoQ-PhoP variant library, together with: 10 µM Mg2+ | baseline: high Mg2+ state, higher = stronger signaling | fold induction | 1.15 |
| P1 R5A | CCNE2, cyclin fold, Cln2 fusion (human) | yeast growth competition, sequencing | yeast | strong parent motif | baseline: not given, higher = stronger binding | normalised enrichment score | 1.27 |

Some of these lines once more (series 2):
| Substitution | binding fitness |
| --- | --- |
| K36C | -1.17 natural log |
| T37P | -1.51 natural log |
